# Measured values from different studies.
# Each numbered part is a random draw from the data of one study; scales do not carry over between parts.

# Block 1 — technique: RNA Bind-n-Seq; form: RNA; sample: in vitro; tested at: not given; relative to: input RNA pool; reading: higher = stronger binding
# Target: RING finger protein unkempt homolog, zinc fingers 1-6, GST-SBP tag (UNK, Homo sapiens, UniProt Q9C0B0, residues 30-357)
# Notes: RNA with constant flanks, human-mouse chimeric sites, ends assumed
# Residues (chain): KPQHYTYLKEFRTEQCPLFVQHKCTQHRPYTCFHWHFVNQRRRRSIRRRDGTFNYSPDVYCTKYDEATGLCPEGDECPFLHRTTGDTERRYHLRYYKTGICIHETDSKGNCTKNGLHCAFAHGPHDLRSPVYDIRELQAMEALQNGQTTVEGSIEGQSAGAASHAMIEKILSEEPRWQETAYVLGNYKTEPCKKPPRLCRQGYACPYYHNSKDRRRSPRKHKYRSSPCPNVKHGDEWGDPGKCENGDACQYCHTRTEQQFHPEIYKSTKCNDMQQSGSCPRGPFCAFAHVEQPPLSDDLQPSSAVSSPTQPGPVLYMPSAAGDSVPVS
Strand,bound/input enrichment [ratio]
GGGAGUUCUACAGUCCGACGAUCAGAUUCCCCCUCCUGAGACCUCCUCCGAAGUUGGAGUCUCUUACAGAUGGUUCAUCUCCUGUUAGCGUUUUGGUCUGGACCACCCAGCCUUGGACAAUUCCCGCCAACCAGGCAAUUUGCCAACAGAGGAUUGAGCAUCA,0.37
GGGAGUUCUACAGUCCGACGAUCAAAGAGUGGAUAGAAUGUGCACACGGGAUCGGUGGGACCCGGGCGAAAAAGGAGUGCAAGAUAGAAUUCGAUGACUUCGAAGAGUGCUUGCUUCGGUACAAAACGAUGAGGCGAAUGCAUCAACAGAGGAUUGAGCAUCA,0.337
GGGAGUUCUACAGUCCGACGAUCCCCACGCCCUCCCUCUCACAGGCCCAAGAUAUAACCCACCAGUGCCUUUUGUCUUCCUGUCAGCUCUGUCAAUCACGCCUGUCCUCUCACGCCCACACCAAGUGCCCAAAGUGGGGAGGGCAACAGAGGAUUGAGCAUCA,0.532
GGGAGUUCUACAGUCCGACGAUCAGUGUGCAGGAAUUCAUGACCUUUACAAGUCAACUGAUUGUGGAACGCUCGGGGAAAGGCACUAGAGCUUCUGUCAAAGAACAAGAGUAUCUUUGCCAUGUCUACGUCCGGAAUGAUAGUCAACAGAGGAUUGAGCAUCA,0.136
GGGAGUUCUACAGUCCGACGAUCUUGGAAGGACCAGAGCCCAGUCAGCUCAAACCAUUAGUCAUACAGGCUAUGCCCACCCUAAUAGAACUAAUGAAAGACCCCAGUGUAGUUGUUCGAGACACAACAGCGUGGACUGUGGGCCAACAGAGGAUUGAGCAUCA,0.408
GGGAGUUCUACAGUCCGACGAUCUUACCCGAGAACGAGGAUGAGCUGGAGAGCACCAACAGGCGCUACACCAAGAGGGACUGCAGCACUUUUCUCAGAACUAGUGAGACGGGCAUUGUGGACCAGGUCAUGGUCACUCUCAACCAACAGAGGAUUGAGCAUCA,0.155
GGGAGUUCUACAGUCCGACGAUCUCAGGAACCCAGACAAAUAUGAAUGUAAAUGAAGUCAUUAGCAACAGAGCAAUUGAAAUGUUAGGAGGUGAACUUGGCAGCAAGAAGCCUGUGCACCCCAAUGAUCAUGUUAACAAAAGCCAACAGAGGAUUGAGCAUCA,0.524
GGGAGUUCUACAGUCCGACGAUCGUACUGCAGCAGCAGGGAAAACUGCAGGAAGCUCUGAUGCAUUAUAAAGAAGCCAUACGAAUCAGUCCUACCUUUGCUGAUGCCUACUCUAAUAUGGGAAACACUCUAAAGGAGAUGCAGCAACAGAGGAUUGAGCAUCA,0.25
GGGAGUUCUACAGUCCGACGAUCGUUGCCAGCUUCCGGUUCCGUUGGGCUAGCAAGCUCCCUGAGCUACGUGUCUCUACGCUCUCAAUCCGCCAUCCAACAAACAUGGAUGAUCAGGUAAAGUUUGUGGAGCCCAGCCGGCAGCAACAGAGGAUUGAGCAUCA,0.0835
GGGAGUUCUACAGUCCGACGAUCACCUCCCCCUCCCGCCUCACCCCACCCCCGCUUUUUGGAAAGUUUUUGGCUUUUUUUUUCCUUCCCCAUACAAAGUGAUUACAGUUUCCCCCGCAAGGGUCUAUCGAAGGGCUUGACGGACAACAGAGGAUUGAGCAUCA,1.32
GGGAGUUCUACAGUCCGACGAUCGAGCCAAGCCGGCAGUUUGUAAAGGACUCAAUUCGGCUGGUUAAAAGAUGCACCAAACCCGACAGAAAAGAAUUCCAGAAGAUUGCCAUGGCUACAGCUAUAGGAUUUGCUAUAAUGGGACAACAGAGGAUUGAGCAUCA,0.323

# Block 2 — technique: protein-binding microarray; form: double-stranded DNA, one strand shown; sample: in vitro; tested at: not given; reading: higher = stronger binding
# Target: Transcriptional repressor CTCF (CTCF, Homo sapiens, UniProt P49711, residues 1-727, full length assumed)
# Notes: k-mer, scored over probes, only values ≥0.25
# Target sequence (chain): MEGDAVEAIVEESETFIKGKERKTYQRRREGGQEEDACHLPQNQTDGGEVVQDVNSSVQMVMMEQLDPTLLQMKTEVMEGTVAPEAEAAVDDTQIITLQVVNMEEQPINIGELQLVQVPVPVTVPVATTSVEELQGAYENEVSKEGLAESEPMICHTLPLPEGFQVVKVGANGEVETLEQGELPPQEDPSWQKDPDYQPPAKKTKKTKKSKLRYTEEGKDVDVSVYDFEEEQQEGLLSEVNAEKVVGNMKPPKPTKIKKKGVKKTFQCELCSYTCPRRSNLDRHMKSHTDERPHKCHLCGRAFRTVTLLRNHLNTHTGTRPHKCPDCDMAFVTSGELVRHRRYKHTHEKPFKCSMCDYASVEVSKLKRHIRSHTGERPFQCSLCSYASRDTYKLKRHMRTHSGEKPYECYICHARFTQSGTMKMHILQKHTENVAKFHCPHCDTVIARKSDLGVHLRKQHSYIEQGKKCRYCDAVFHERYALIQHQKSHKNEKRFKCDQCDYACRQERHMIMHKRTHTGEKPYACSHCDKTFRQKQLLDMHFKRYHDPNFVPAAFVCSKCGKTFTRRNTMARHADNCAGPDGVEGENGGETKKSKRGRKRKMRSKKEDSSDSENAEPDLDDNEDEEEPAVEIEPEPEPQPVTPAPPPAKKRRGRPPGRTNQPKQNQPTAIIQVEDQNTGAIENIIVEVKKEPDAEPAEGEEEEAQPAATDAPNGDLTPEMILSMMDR
Strand,E-score
TATTATCA,0.301
CGTATACG,0.293
CAACTGTA,0.253
AAAATTGC,0.253
GCGCCACC,0.444
ATAAAATA,0.37
ATTTAGCA,0.257
GATTAACA,0.256
AATATATG,0.367
AATACACA,0.302
AATCAGCT,0.325
ATGGCGCA,0.428
CATATAGG,0.315
TAGGGGGA,0.355
TAACAGAA,0.294
GCGCCGCC,0.404
AATTTAAT,0.279
CGCGCTAA,0.361

# Block 3 — technique: protein-binding microarray; form: double-stranded DNA, one strand shown; sample: in vitro; tested at: 2200 nM top; notes: 60-bp whole probe; together with: salmon DNA 0.4 mg/ml; relative to: random background probes; reading: higher = stronger binding; all sequences stand within: GCCTAGCAC … GTCTTGATTCGCTTGACGCTGCTG
# Target: Interferon regulatory factor 7, full length, phosphomimetic (IRF7, Homo sapiens, UniProt Q92985, residues 1-503, S471D/S472D/S475D/S476D/S477D/S483D/S484D/S487D)
# Target sequence (chain): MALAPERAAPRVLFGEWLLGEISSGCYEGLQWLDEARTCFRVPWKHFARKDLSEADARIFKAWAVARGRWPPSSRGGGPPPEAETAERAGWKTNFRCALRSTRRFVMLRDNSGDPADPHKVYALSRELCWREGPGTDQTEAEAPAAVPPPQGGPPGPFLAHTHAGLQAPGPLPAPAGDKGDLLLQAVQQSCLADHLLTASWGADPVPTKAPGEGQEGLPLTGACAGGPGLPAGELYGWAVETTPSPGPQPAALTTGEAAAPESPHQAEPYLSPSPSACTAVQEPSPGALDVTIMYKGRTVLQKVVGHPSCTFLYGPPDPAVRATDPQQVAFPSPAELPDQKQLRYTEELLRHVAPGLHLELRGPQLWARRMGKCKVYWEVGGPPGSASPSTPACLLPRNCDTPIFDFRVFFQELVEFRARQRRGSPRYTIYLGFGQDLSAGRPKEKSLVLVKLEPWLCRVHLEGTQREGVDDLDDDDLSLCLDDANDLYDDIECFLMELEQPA
Strand,fitted relative affinity [z-score]
GACGGTCGCGGTATCGGGACGTGCTAG,-0.406
TTAGCTTCCAGTTTCGATTAGTGCTAG,6.41
TACCTTTTCACTTTACACACGTGCTAG,4.38
TCTATCTGCAGACTCTCACAGTGCTAG,1.19
TTAGGTCTACTTTTCCTTTAGTGCTAG,2.59
CCGTGTTTCTCAACCATTTTGTGCTAG,2.69
TTAGGACTGGGGTCTCGGTTAGTGCTA,-0.581
TCATAAATCTTTTTCCCACTGTGCTAG,0.828
GACCTTCACCTCTCTGTCCCCGTGCTA,1.45
TTAGATTTCAAACTGGATTAGTGCTAG,-0.459
CACGAACTGAGTATCGAGACGTGCTAG,0.254
TGTGCTTTCCTGATGGTCCTGTGCTAG,2.11
TCATTTCTAATATTCTGACTGTGCTAG,1.4
TTAGATTTCGGGTTTTGATTAGTGCTA,3.82
GAAGGTTTCGACTATCGGGACGTGCTA,2.82
TCCTCTTTCTCTGCTACCCTTGTGCTA,2.84
GTCGGTTTCCTTTTCCTGACGTGCTAG,7.27
TTAGGTTTGCTTCTCCTTTAGTGCTAG,1.63
TCCCACAGTCGAAAGTCTGCGTGCTAG,0.717
GACGATTTCCGTCTCGAGACGTGCTAG,1.77
GACGATTTCAGTCTCGAAACGTGCTAG,0.842
TCATTTTGGTTTTCTCTAACTGTGCTA,3.08
TTAGGGCTGCTTTTCCTTTAGTGCTAG,0.852
TCATTTATTTTTTTTATACTGTGCTAG,1.39
GACGGTTTCCTCCTGCTGACGTGCTAG,2.42

# Block 4 — target: Sox, HMG box (Pigoraptor chileana); technique: Spec-seq; form: double-stranded DNA, one strand shown; sample: in vitro; tested at: not given; notes: whole probe, mean of replicates; relative to: not given; reading: lower = stronger binding; all sequences stand within: GAGTCGTCTCGTCAGCAC … CCGTAGAGCACTCAGGTC
# Construct (chain): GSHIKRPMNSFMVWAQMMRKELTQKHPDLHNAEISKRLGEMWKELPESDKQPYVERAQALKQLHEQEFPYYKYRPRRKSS
Strand,relative binding energy
CCACGTT,0.88 ln ratio
AGACGTT,-0.273 ln ratio
AACTGTT,-1.9 ln ratio
GATAGTT,-0.191 ln ratio
TGGCGTT,0.788 ln ratio
CATACTA,-0.226 ln ratio
AGCTGTT,-0.887 ln ratio
CATGATT,0.499 ln ratio
TGACGTT,0.561 ln ratio
CATGTGT,0.429 ln ratio
CCTCGTT,0.722 ln ratio
ATGAGTT,0.188 ln ratio
CATTTGG,0.591 ln ratio
CATAACC,0.248 ln ratio
CATTGTT,-3.09 ln ratio
CATGTCC,0.811 ln ratio
GGCAGTT,0.855 ln ratio
CAGTGTT,-0.588 ln ratio
CATATGT,-0.0833 ln ratio
TGTTGTT,-2.06 ln ratio
AACAGTT,-1.53 ln ratio
GTCTGTT,-1.1 ln ratio
GCTAGTT,0.284 ln ratio

# Block 5 — technique: protein binding microarray; form: double-stranded DNA, one strand shown; sample: in vitro; tested at: not given; relative to: not given; reading: higher = stronger binding
# Target: Histone acetyltransferase KAT6A, winged helix 1, GST fusion (KAT6A, Homo sapiens, UniProt Q92794, residues 1-85)
# Notes: 8-mer, flanks averaged, mean of 2 arrays, mostly near background
# Target sequence (chain): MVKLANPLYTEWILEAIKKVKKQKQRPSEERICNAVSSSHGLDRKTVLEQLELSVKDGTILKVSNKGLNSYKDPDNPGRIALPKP
Strand,E-score
CCGCTCGA,0.298
AGCAAACA,-0.144
AATCTCAG,-0.0888
ATCGTCGC,0.0762
AAACCCCC,0.0608
GACCCCAC,-0.216
CGTCCGTA,0.301
AGAGAGTA,-0.0743
GCCTATAC,-0.0233
TAGAATGA,-0.107
CAATTGTA,-0.0513
AGGTCTTC,-0.105
AAGTCTAT,-0.266
ACAACATC,0.0397
CAATATTC,-0.168
AACACAGT,-0.17
GTTCCAAC,-0.0577
AAAGTAGC,-0.0553
ATTGTTCC,0.0612
CGAGTAAG,0.0701
ATGACTAC,-0.12
ATTCTGGA,-0.201
AGCCCCTA,-0.225

# Some of these lines once more (block 2):
Strand,E-score
AATATATG,0.367
GATTAACA,0.256
CGCGCTAA,0.361
AATCAGCT,0.325
TAACAGAA,0.294
TATTATCA,0.301
CGTATACG,0.293
ATAAAATA,0.37
GCGCCACC,0.444
GCGCCGCC,0.404
CATATAGG,0.315
TAGGGGGA,0.355
AATACACA,0.302
